Measurements gathered from unrelated publications.
Compare with care: the assays were run in different laboratories. Numbers after ± are the reported error.

For `Cc1cc(C(=O)NC(C)(C)COc2cccc3c2C(N)=NS(=O)(=O)N3)cc(C)n1`, the cytotoxicity was -5% (human peripheral blood lymphocytes; CBPI, concurrent micronucleus test; 1000 µg/mL, 4 h, together with: rat liver S9; baseline: vehicle control).
`Cc1ccc(-c2nc(NS(=O)(=O)c3ccccc3)nc(N)c2-c2nc3ccccc3s2)cc1`: “maximum non-toxic concentration” 90 µg/mL (Huh7.5; cytotoxicity; 72 h).
Under “free drug concentration”, `Cc1cc(Nc2ccc(S(F)(F)(F)(F)F)cc2)n2nc(C(C)(F)F)nc2n1` is recorded as 600 nM (SIRC; culture medium; 5 µM, 48 h).
`CCCC(CCC)NC(=O)c1ccc2c(c1)OCO2` — result for “relative cell growth”: 107% (CHO-WBL; 5.0 mg/mL, 3 h, with rat liver S9; baseline: vehicle control).
`N#Cc1ccc(Nc2nc(N)cc(Oc3ccc(-c4ccccc4)cc3F)n2)cc1` has a CC50 of 29.6 ± 1.63 µM (MT4 uninfected).
For `CC(=O)c1c(C)cc2cc(O)cc(O[C@@H]3O[C@H](CO)[C@@H](O)[C@H](O)[C@H]3O)c2c1O`, the cell viability was 152 ± 14.3% (HK-2 co-cultured with HepaRG; MTT; 16.67 µM, 24 h; baseline: untreated control).
With `CCn1c(=O)/c(=C2\Sc3cc(Cl)ccc3N2C)s/c1=C\c1scc[n+]1Cc1ccccc1` the EC50 was greater than 60 µM (MYBPC3-mutant iPSC cardiomyocytes; cell viability; 24 h).
`Cc1ccc(S(=O)(=O)Nc2nc(N)c(-c3nc4ccccc4s3)c(-c3ccc(F)cc3)n2)cc1`: “maximum non-toxic concentration” 100 µg/mL (Huh7.5; cytotoxicity; 72 h).
`COc1cc2c(c(O)c1OC)C(=O)c1c(cc(C)c(O[C@@H]3O[C@H](CO)[C@@H](O)[C@H](O)[C@H]3O)c1OC)C2=O` has a cell viability of 97.6 ± 4.78% (HK-2 co-cultured with HepaRG; MTT; 66.67 µM, 48 h; baseline: untreated control).
`C[C@@H]1[C@H](O)[C@@H](C)/C=C/C=C/C=C/C=C/C=C/C=C/C=C/[C@H](O[C@@H]2O[C@H](C)[C@@H](O)[C@H](N)[C@@H]2O)C[C@@H]2O[C@](O)(C[C@@H](O)C[C@@H](O)[C@H](O)CC[C@@H](O)C[C@@H](O)CC(=O)O[C@H]1C)C[C@H](O)[C@H]2C(=O)O` gave a CC50 of 5.03 µM (human primary fibroblasts; viability, MTS; 24 h).
`O=C(Nc1cc(F)cc2cccnc12)c1cnc(NCCN2CCS(=O)(=O)CC2)cn1` — result for cytotoxicity: “not toxic” (MIA PaCa-2; MTT; concentration not given).
`COc1cc(O)c2c(c1)C(=O)c1cc(C)cc(O)c1C2=O` has a viability of 99.6 ± 10.3% (HK-2 co-cultured with HepaRG; MTT; 266.67 µM, 24 h; baseline: untreated control).
Under “maximum non-toxic concentration”, `Nc1nc(NS(=O)(=O)c2ccccc2)nc(-c2ccc(Cl)cc2)c1-c1nc2ccccc2s1` is recorded as 100 µg/mL (Huh7.5; cytotoxicity; 72 h).
The viable cells of `COc1ccc(NC(=S)N/N=C/c2cccc3cc4ccccc4nc23)cc1` is reported as 84.6 ± 0.45% (HeLa; annexin V/PI; IC12.5, 48 h).
`CN1C(=O)C(=O)c2cc3c(c4c2c1cc1ccccc14)OCO3` has an inhibition of less than 50% (MRC-5; cytotoxicity, MTT; 50 µg/mL, 48 h).
`CCSc1c(-c2nc3ccccc3s2)c(N)n(NS(=O)(=O)c2ccccc2)c(=O)c1C#N`: “maximum non-toxic concentration” 120 µg/mL (Huh7.5; 72 h).
The viability of `COc1c(O)c(C)cc2c1C(=O)c1c(cc(O)c(O)c1O)C2=O` is reported as 87.1 ± 7.12% (HK-2 co-cultured with HepaRG; MTT; 66.67 µM, 24 h; baseline: untreated control).
`N#Cc1ccc(Nc2nc(N)cc(Oc3ccc(-c4ccc(C#N)c(C#N)c4)cc3)n2)cc1` gave a CC50 of 218 ± 19.4 µM (MT4 uninfected).
Under “maximum non-toxic concentration”, `CCOC(=O)c1cc(C#N)c(=O)n(NS(=O)(=O)c2ccccc2)c1N` is recorded as 90 µg/mL (Huh7.5; 72 h).
For `Cc1cc(O)c2c(c1)C(=O)c1cccc(O)c1C2=O`, the viability was 88.5 ± 10.9% (HK-2 co-cultured with HepaRG; MTT; 66.67 µM, 24 h; baseline: untreated control).
`CCSc1c(-c2nc3ccccc3s2)c(N)n(NS(=O)(=O)c2ccc(C)cc2)c(=O)c1C#N`: “maximum non-toxic concentration” 120 µg/mL (Huh7.5; 72 h).
`CCCCc1oc2ccc(NS(C)(=O)=O)cc2c1C(=O)c1ccc(OCCCN(CCCC)CCCC)cc1` has an ALERT score of 2 (H9 human embryonic stem cell aggregates; qRT-PCR; 3D aggregates; 0.1 µM, 5 days, developmental toxicity model; direction not given).
`c1csc(CNc2cc[nH]n2)c1` — result for “cells with structural aberrations”: 0% (human peripheral blood lymphocytes, female; 100 µg/mL, 20 h, without S9).
For `COC(=O)c1c(C)ncn1CC(c1c[nH]c2cc(Br)ccc12)c1c[nH]c2cc(Br)ccc12`, the CC50 was greater than 20 µM (human primary fibroblasts; viability, MTS; 24 h).
For `Cc1cn([C@H]2C[C@H](N=[N+]=[N-])[C@@H](CO)O2)c(=O)[nH]c1=O`, the CC50 was greater than 7 µM (MT4 uninfected).
For `CC(=O)CNc1nc(NS(=O)(=O)c2ccccc2)ncc1-c1nc2ccccc2s1`, “maximum non-toxic concentration” read 80 µg/mL (Huh7.5; cytotoxicity; 72 h).
`CCCCc1oc2ccccc2c1C(=O)c1cc(I)c(OCCN(CC)CC)c(I)c1` gave an ALERT score of 11 (H9 human embryonic stem cell aggregates; qRT-PCR; 3D aggregates; 4 µM, 5 days, developmental toxicity model; direction not given).
For `Cc1noc(C)c1Cn1cc(N2C(=O)CN(Cc3cccc(O)c3)C2=O)cn1`, “aberrant cells without gaps” read 1% (human blood lymphocytes; 494.3 µg/mL, 3 h).
`CCSC(SCC)=C(C#N)c1nc2ccccc2s1` — result for “maximum non-toxic concentration”: 100 µg/mL (Huh7.5; 72 h).
`COc1c(O)c(C)cc2c1C(=O)c1c(ccc(O)c1O)C2=O` gave a viability of 84.8 ± 5.94% (HK-2 co-cultured with HepaRG; MTT; 33.33 µM, 48 h; baseline: untreated control).
The CC50 of `N#Cc1ccc(Nc2nc(N)cc(Oc3ccc(-c4ccc(C#N)cc4)c(F)c3F)n2)cc1` is reported as greater than 45 µM (MT4 uninfected).
Under “binucleated cells with micronuclei”, `COc1cccc(-c2n[nH]c(SCc3ccccn3)n2)c1OC` is recorded as 1.3% (CHO-WBL; 31 µg/mL, 19 h, without S9).
For `N#Cc1ccc(Nc2nc(N)cc(Oc3c(F)cc(-c4ccc(C#N)c(F)c4)cc3F)n2)cc1`, the CC50 was 96.6 ± 38.1 µM (MT4 uninfected).
`Cc1ccc(C(=O)CNc2nc(NS(=O)(=O)c3ccccc3)ncc2-c2nc3ccccc3s2)cc1`: “maximum non-toxic concentration” 100 µg/mL (Huh7.5; cytotoxicity; 72 h).
The IC50 of `COc1ccc2c(Cc3ccccc3F)c3[n+](cc2c1OC)CCc1cc2c(cc1-3)OCO2` is reported as 30.5 µM (CHO-K1; cytotoxicity, CCK-8; 24 h).
The CC50 of `N#Cc1ccc(Nc2nc(N)cc(Oc3c(F)cc(-c4cccc(F)c4)cc3F)n2)cc1` is reported as 20.7 ± 2.62 µM (MT4 uninfected).
With `CC(C)(c1ccc(O)cc1)c1ccc(O)cc1` the viable cells was 53% (HepG2 spheroids, dissociated; annexin V-FITC/PI flow cytometry; 10 µM, 96 h).
For `C/C(O)=C(\C#N)C(=O)Nc1ccc(C(F)(F)F)cc1`, “free drug concentration” read 780 nM (SIRC; culture medium; 3 µM, 48 h).
For `COc1c(O)cc2c(c1O)C(=O)c1c(cc(C)c(O)c1OC)C2=O`, the viability was 56.2 ± 3.9% (HK-2 co-cultured with HepaRG; MTT; 133.33 µM, 48 h; baseline: untreated control).
For `O=C(CNc1nc(NS(=O)(=O)c2ccccc2)ncc1-c1nc2ccccc2s1)c1ccc(Cl)cc1`, “maximum non-toxic concentration” read 110 µg/mL (Huh7.5; cytotoxicity; 72 h).
`N#Cc1ccc(Nc2nc(N)cc(Oc3ccc(-c4ccccc4)cc3)n2)cc1` gave a CC50 of 25.6 ± 8.09 µM (MT4 uninfected).
`COc1ccc(-c2nc(NS(=O)(=O)c3ccc(C)cc3)nc(N)c2-c2nc3ccccc3s2)cc1` — result for “maximum non-toxic concentration”: 90 µg/mL (Huh7.5; cytotoxicity; 72 h).
The cell viability of `O=C(O)c1cc(O)c2c(c1)C(=O)c1cccc(O[C@@H]3O[C@H](CO)[C@@H](O)[C@H](O)[C@H]3O)c1C2=O` is reported as 99.3 ± 11.4% (HK-2 co-cultured with HepaRG; MTT; 66.67 µM, 24 h; baseline: untreated control).
`N#Cc1ccc(Nc2nc(N)cc(Oc3c(F)cc(-c4ccccc4F)cc3F)n2)cc1` has a CC50 of 95.3 ± 52.9 µM (MT4 uninfected).
